Measured values from different studies.
Each numbered part is a random draw from the data of one study; scales do not carry over between parts. Substitutions count along the parent as printed.

Study 1 — technique: RNA Bind-n-Seq; molecule type: RNA; medium: in vitro; concentration: 200 nM; notes: whole 134-nt RNA, ends assumed; added: 150 mM KCl; baseline: input library; reading: higher = stronger binding
Target: Ras GTPase-activating protein-binding protein 1, full length (G3BP1, Homo sapiens, UniProt Q13283)
Chain of UniProt Q13283 (whole entry, looked up): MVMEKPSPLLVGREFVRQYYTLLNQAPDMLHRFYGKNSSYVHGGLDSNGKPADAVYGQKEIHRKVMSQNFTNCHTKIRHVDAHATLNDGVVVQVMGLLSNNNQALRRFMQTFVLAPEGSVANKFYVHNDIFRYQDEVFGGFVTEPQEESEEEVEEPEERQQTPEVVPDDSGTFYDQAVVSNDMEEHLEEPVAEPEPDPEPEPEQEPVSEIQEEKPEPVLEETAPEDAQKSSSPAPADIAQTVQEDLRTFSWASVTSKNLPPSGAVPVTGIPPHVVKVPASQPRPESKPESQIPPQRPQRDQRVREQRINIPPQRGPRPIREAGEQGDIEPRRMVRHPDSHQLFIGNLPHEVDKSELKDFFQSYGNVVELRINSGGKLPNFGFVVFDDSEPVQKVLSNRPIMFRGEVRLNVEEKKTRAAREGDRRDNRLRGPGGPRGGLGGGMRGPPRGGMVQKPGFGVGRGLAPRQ
The log2 enrichment of `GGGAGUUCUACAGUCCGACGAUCGUCCUGUGCUACACAUCGUAUGUACCGAAUCGGGAAAAAAAGGGUGGGUUUUUUUGGGAAAGUAUUAUGUUACGCCGUUCGGAUCUGCACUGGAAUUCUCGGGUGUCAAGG` is reported as -0.247.
With `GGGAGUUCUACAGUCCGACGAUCUGCCUCUGCGGCUAGCUGAUUUUGGGGUACUUCAUAGGAACGAGCUGUCUGGAGCACUCACAGGACUCACCCGGGUACGAAGAUUCCAACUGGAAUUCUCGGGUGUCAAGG` the log2 enrichment was -1.25.
`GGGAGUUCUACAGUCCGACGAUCUGGCCCUGGUGGCAUGCGGGGAGGAAGAGGUGGCCUCAUGGAUCGUGGUGGUCCCGGUGGAAUGUUCAGAGGAGGCCGUGGUGGAGACAGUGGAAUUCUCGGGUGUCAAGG` has a log2 enrichment of -0.021.
For `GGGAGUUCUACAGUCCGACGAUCUUGACCUAGAGGAUGAGACCAUUGAUGCCGAGGUCAUGAACUCUCUAGCAGUUACUAUGGAUGACUUCCGGGUAAGGACCACACCCGUGCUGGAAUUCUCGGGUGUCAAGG`, the log2 enrichment was -1.64.
`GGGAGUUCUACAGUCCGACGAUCUCCUGUGCUACACAUCGUAUGUACCGAAUCGGGUUUUUUGGGGUUUUUUGGGUUUUUUGGAAAGUAUUAUGUUACGCCGUUCGGAUCUGCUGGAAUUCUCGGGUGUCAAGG` gave a log2 enrichment of -0.0627.
With `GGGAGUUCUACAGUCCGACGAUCCAAGUCCUGUGCUACACAUCGUAUGUACCGAAUCGGAAAGGGGAAAGGGGAAAGGGAAAGUAUUAUGUUACGCCGUUCGGAUCUGCACUUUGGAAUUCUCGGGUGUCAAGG` the log2 enrichment was 0.0708.
For `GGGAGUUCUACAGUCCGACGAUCCAAGUCCUGUGCUACACAUCGUAUGUACCGAAUCGGGCCCGGGGCCCGGCCCGGGGAAAGUAUUAUGUUACGCCGUUCGGAUCUGCACUUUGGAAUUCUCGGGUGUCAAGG`, the log2 enrichment was -1.04.
For `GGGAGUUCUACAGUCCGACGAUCCAAGUCCUGUGCUACACAUCGUAUGUACCGAAUCGGGAAAGGGAAAGGGGAAAGGAAAGUAUUAUGUUACGCCGUUCGGAUCUGCACUUCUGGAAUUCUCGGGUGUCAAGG`, the log2 enrichment was -0.232.
The log2 enrichment of `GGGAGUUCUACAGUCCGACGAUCCCUCAAGUCCUGUGCUACACAUCGUAUGUACCGAAUCGGCGGGGCGGGCGGGGAAAGUAUUAUGUUACGCCGUUCGGAUCUGCACUUCCAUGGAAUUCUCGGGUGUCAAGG` is reported as 1.11.
With `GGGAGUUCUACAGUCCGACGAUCACUGAUGAGAGCCUGAGGAGCCAUUUUGAGCAAUGGGGAACGCUCACGGACUGUGUGGUAAGAUUUGGAAGGGACAAAGCAGUAAAACAGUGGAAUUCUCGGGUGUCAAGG` the log2 enrichment was 0.564.

Study 2 — technique: universal PBM; molecule type: double-stranded DNA, one strand shown; medium: in vitro; concentration: not given; reading: higher = stronger binding
Target: Sal-like protein 4, full length isoform B (SALL4, Homo sapiens, UniProt Q9UJQ4-2, residues 1-616)
Notes: 8-mer, flanks averaged, mean of replicates
Residues (chain): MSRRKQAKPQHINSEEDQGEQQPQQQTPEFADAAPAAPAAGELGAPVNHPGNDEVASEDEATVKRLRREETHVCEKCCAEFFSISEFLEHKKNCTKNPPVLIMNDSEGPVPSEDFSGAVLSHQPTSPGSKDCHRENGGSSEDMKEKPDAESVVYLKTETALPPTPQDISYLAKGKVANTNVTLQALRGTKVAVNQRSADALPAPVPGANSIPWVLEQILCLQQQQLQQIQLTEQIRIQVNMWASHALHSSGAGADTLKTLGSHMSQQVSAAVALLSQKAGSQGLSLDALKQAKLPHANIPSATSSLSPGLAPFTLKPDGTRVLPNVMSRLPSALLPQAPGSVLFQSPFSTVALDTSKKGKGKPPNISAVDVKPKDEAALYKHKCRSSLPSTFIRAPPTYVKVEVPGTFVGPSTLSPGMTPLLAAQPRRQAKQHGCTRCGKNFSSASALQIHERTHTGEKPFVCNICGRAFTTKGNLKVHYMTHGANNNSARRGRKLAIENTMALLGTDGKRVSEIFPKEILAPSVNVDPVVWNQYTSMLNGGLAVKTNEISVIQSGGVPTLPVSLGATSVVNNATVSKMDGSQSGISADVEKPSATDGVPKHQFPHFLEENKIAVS
With `AGCCGAAG` the E-score was -0.182.
`CACCAAAG` gave an E-score of 0.0297.
`ACTAGATC` has an E-score of 0.0315.
`CTCTCCTA` has an E-score of 0.0577.
The E-score of `CCTTTTAG` is reported as -0.0624.
`ACTCCAAG` has an E-score of -0.0543.
With `GTGCGTGA` the E-score was -0.0527.
With `CTGAGCCC` the E-score was -0.263.
`GGATAGCA` has an E-score of 0.156.
The E-score of `CCGAGGCA` is reported as -0.142.
`CCTTGTAG` has an E-score of -0.0195.
`GAAGTCCA` has an E-score of -0.0669.
With `CGTTGGAG` the E-score was -0.166.
With `ACCTTTTC` the E-score was 0.0829.
`ACGTATCG` gave an E-score of 0.135.
For `CAGTAAGG`, the E-score was -0.0218.
`GATGCAAC` has an E-score of -0.113.
`AAGATGGC` has an E-score of 0.106.
For `ACGTATGC`, the E-score was 0.0895.
For `TCGTTGAA`, the E-score was 0.0724.
`ACCCAACG` has an E-score of -0.135.
`AAGTTAGC` gave an E-score of 0.131.
The E-score of `ACTGACAT` is reported as 0.0903.
The E-score of `AAAAATCG` is reported as 0.19.
`AGCGACCA` has an E-score of -0.0903.

Study 3 — technique: DHFR PCA, deep sequencing; medium: yeast; added: (+)-ABA 0 µM; baseline: wild-type fitted maximum; reading: higher = stronger binding
Target: ABI1, truncated, D143A, DHFR fusion (Arabidopsis thaliana)
Notes: methotrexate growth selection, single substitutions
Starting sequence: PYL1, truncated, DHFR fusion (Arabidopsis thaliana); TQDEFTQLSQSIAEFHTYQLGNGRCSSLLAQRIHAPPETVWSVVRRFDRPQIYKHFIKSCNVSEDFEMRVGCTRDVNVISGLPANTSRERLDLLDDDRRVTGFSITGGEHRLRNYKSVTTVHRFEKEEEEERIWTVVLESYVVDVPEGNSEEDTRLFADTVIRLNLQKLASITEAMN; partner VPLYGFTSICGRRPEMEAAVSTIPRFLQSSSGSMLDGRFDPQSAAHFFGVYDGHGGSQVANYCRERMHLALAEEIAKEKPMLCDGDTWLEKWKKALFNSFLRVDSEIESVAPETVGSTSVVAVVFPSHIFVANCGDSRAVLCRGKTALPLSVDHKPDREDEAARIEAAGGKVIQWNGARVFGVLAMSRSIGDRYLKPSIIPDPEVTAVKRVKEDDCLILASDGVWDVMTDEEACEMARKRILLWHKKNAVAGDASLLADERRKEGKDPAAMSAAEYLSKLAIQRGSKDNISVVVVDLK
`V40Q`: “relative binding score” 5.2%.
`S27P` — result for “relative binding score”: 2.79%.
For `A84S`, “relative binding score” read 35.3%.
`Q51T`: “relative binding score” -3.89%.
Under “relative binding score”, `L156G` is recorded as -3.13%.
For `T160K`, “relative binding score” read -2.61%.
`L93A` — result for “relative binding score”: 1.34%.
`D153Y`: “relative binding score” -4.77%.
Under “relative binding score”, `I12P` is recorded as 1.62%.
`P36K`: “relative binding score” 9.04%.
Under “relative binding score”, `I162Q` is recorded as -2.51%.
`G21S` — result for “relative binding score”: 29.7%.
`Y18V`: “relative binding score” -0.552%.
For `L138Q`, “relative binding score” read -5.13%.
`N177T`: “relative binding score” 35.8%.
For `T101P`, “relative binding score” read -3.77%.

Study 4 — technique: RNA Bind-n-Seq; molecule type: RNA; medium: in vitro; concentration: 365 nM; baseline: no-protein control; reading: higher = stronger binding
Target: RNA binding protein fox-1 homolog 2, RRM domain, GST-SBP tag (RBFOX2, Homo sapiens, UniProt O43251-10, residues 100-194)
Notes: natural RNA segment, single round, ends assumed
Target sequence (chain): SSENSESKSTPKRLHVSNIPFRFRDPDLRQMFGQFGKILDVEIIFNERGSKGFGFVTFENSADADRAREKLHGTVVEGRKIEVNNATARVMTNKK
Under “RBNS enrichment (R)”, `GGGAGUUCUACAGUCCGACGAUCGAACCUUCAUGUCUUUUCUAGUGGGCAACCAGGCUUCCAAAAUAGCACUGACCUGGGAGGCCCCCAAGUAAGGCCAAGAAGUCUCUGCUACUCUAAUCUUUUACGUAUUAUGGAAUUCUCGGGUGCCAA` is recorded as 0.453.
Under “RBNS enrichment (R)”, `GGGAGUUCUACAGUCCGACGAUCCACUGUUGUGGCUUUUGACUUGGGGUGGUCCAGUGCCAGGCUGGAAGUAAGCACAGCCCAUCUCCUGUUCACAUUCUCUAGACCGUCAUCACCUUUGCCCUGCUCUGGGGUGGAAUUCUCGGGUGCCAA` is recorded as 1.22.
`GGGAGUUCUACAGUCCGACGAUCGGAUAGCCAGGAAGUUUCUAGUUUGUGUAACCUAGAAGGGUCACUUUAAUAAAAAUUGUUAUGAACUAUAGUAUUUUAGAUGAUGAGUGACUUAUUUUAAUUCCACUUUAUGGAAUUCUCGGGUGCCAA`: “RBNS enrichment (R)” 0.302.
`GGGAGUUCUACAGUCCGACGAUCCGCCCCUGCUGCUGGCCUCGGGCAUGGCCCGCGACUGGCCCGACGCCCGCGGUAUCUGGCACAAUGACAAUAAGACCUUCCUGGUGUGGGUCAACGAGGAGGACCACCUGUGGAAUUCUCGGGUGCCAA` — result for “RBNS enrichment (R)”: 0.246.
For `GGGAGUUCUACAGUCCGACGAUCGGGAGACCACAGGACAUGCCCAAGGCAAAGAGUUGGUAGUCCCUGGAUUUGGGAAUCAAACUCAAGCCCAUCUAAUCCAAGGGUAGGAAAUGUCUCUAAAACGUUGAUCAUGGAAUUCUCGGGUGCCAA`, “RBNS enrichment (R)” read 0.203.
For `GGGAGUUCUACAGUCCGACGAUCGCUGAUCAGAUCUCUCCAUAUCCUCUCUUGCCAGCUUUUUCCCGUGCUCCCCCAACUAUGUAUCAGAUAAGAUUCUUUGAUCCCGACUCUGUGUGUGCGAGCACGCGUGUUGGAAUUCUCGGGUGCCAA`, “RBNS enrichment (R)” read 0.782.
For `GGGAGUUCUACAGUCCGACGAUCAAAGUUUGUCAUGGUGAAUAACUUGAAAUUUUUAUUAGUUAUAAGAAUUUUAGUCUGUUUUAGAGGUCAGUAAAUAAAAUACAAGCAUCCUGGUUUUGUUGAAGUUUUGGUGGAAUUCUCGGGUGCCAA`, “RBNS enrichment (R)” read 1.26.
`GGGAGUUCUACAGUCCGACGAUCGGGAGCUCUCUCCCUCAUGCCUGUGGGUAUUUCUGAAAUGAAGCUGCGCCCUGUUCUGUCCUUUCCCAAAGCCCCCUUCUGCCCAUAGCAUGGAUCCAACCCAGGUCACAUGGAAUUCUCGGGUGCCAA`: “RBNS enrichment (R)” 5.19.
`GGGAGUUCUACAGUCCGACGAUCGUCCAAUCAUGUGUGUGGUUCCUGCGAGUUGCUGAUGACUCCGCAUUGAAGCUCUCUGAGUUCUUUGAUUUUAAGUUGGGUUUAUGGAAUUUUUUCAAAUGUUGGAAGGUUGGAAUUCUCGGGUGCCAA` — result for “RBNS enrichment (R)”: 0.758.
For `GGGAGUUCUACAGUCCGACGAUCAUUUAGAAAACGGAAAUGCAGUUUGAAAUUCUGAAUUUGCAAAGUACUGUAACAGUAAUUUAUAGUAAUGUUUUAAAAUCAACUUUUUAUUGCCUUCUCACCAGCUGCAAUGGAAUUCUCGGGUGCCAA`, “RBNS enrichment (R)” read 0.606.
Under “RBNS enrichment (R)”, `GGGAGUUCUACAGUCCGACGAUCGUUGCCCCUAUGCUUCCAGGGCAAUUUGGAGCAGACAGACCAGUGGGGGGUGGGGAACCUCCUUCCACCUGCGCUUCCUUGAGGGGACCAGAGAGCCCUUGGUCCCAGGUUGGAAUUCUCGGGUGCCAA` is recorded as 0.239.
`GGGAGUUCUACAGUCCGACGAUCUUUAUUUGGGGGCACUAAGUUUAGAUGAGAUGAAUUGCCUCAUAGGAAAUGGAAUUGGUCAGGAUAGAUGGUGUGAAACUGAUAAGAGGUUUUGGAUGUGAAAAAGAGUUUGGAAUUCUCGGGUGCCAA`: “RBNS enrichment (R)” 1.16.
